Experimental data pooled from the literature.
Parts stem from different laboratories: compare values within a part only.

Sample 1 — technique: protein binding microarray; form: double-stranded DNA, one strand shown; medium: in vitro; concentration: not given; baseline: not given; reading: higher = stronger binding; measurement: E-score
Target: Histone acetyltransferase KAT6A, both winged helices, GST fusion (KAT6A, Homo sapiens, UniProt Q92794, residues 1-181)
Setting: 8-mer, flanks averaged, mean of 2 arrays, mostly near background
Construct (chain): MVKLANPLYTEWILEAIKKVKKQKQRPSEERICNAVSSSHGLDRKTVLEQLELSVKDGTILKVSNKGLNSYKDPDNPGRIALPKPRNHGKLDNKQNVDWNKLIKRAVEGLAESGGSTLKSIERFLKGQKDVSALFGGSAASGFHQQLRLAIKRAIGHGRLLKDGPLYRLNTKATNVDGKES
Sequence = CTATCACC; value = -0.0121
Sequence = AAAGCCAT; value = -0.0424
Sequence = ACATGAGG; value = -0.132
Sequence = GACGACTA; value = -0.0436
Sequence = ATCCCAGA; value = -0.145
Sequence = GACCACCA; value = 0.00188
Sequence = AAAGACCT; value = -0.0851
Sequence = TATATTGA; value = -0.0458
Sequence = CGCTGAGA; value = 0.0586
Sequence = CCAGATAA; value = -0.115
Sequence = GCGGGTTA; value = 0.24
Sequence = AGGCTCAT; value = -0.193
Sequence = AACTAAAT; value = -0.193
Sequence = GACAGTTA; value = -0.0131
Sequence = CCAGCCGG; value = -0.0106
Sequence = TATGCCGA; value = 0.172
Sequence = CTATCCAG; value = -0.124
Sequence = GGTTAAGA; value = 0.0466
Sequence = ATGGTCCG; value = 0.184
Sequence = TCGACCAA; value = -0.0999
Sequence = CCAAAGAC; value = -0.0725
Sequence = ACGCCGGG; value = 0.26
Sequence = CATCTGCC; value = -0.0602
Sequence = CAGACACA; value = -0.107
Sequence = AAGGCAAA; value = -0.118

Sample 2 — technique: protein-binding microarray; form: double-stranded DNA, one strand shown; medium: in vitro; concentration: 250 nM; setting: 60-bp whole probe; added: salmon DNA 0.4 mg/ml; baseline: random background probes; reading: higher = stronger binding; measurement: log fluorescence; all sequences stand within: GCCTAGCAC … GTCTTGATTCGCTTGACGCTGCTG
Target: Interferon regulatory factor 5, full length, phosphomimetic (IRF5, Homo sapiens, UniProt Q13568-2, residues 1-514, K96S/S451D/S453D/S456D/S462D)
Sequence = TTAGATTACAGACTGGATTAGTGCTAG; value = -0.0705 z-score
Sequence = TGGACTGCACAAGGGCCAGTGTGCTAG; value = -0.602 z-score
Sequence = TTAGGTCTCCTTCTGCTTTAGTGCTAG; value = -0.406 z-score
Sequence = TCAACACTCTTCTTTTGCACTGTGCTA; value = 0.692 z-score
Sequence = TTAGGTAACGGACTGGGTTAGTGCTAG; value = -0.247 z-score
Sequence = GTAAAATTATTCTGTATATTGTGCTAG; value = 0.645 z-score
Sequence = GTTGAGTTCTGTTGCAAAGGGTGCTAG; value = 0.153 z-score
Sequence = TTAGATCGCAGACTGGATTAGTGCTAG; value = -0.297 z-score
Sequence = TCAGTAATGCTTCTGTAACTGTGCTAG; value = 0.14 z-score
Sequence = TTAGGTATCCTTATCCTTTCGTGCTAG; value = 0.777 z-score
Sequence = CTTTCTTTTATGCTCTTTCTGTGCTAG; value = 2.88 z-score
Sequence = TCCATTTTGGTTTTCATTATGTGCTAG; value = 2.28 z-score
Sequence = TAAGGTTTCGGGTTTCGGTTAGTGCTA; value = 9.39 z-score
Sequence = GACGGACTGGGTATCGGGACGTGCTAG; value = 0.171 z-score
Sequence = TCAAGATTTTTTTTCCTACTGTGCTAG; value = 0.718 z-score
Sequence = TTAGGTTTCCTTTTCCTCTAGTGCTAG; value = 1.63 z-score
Sequence = GACGGTATCGGACTGGGGATGTGCTAG; value = 0.912 z-score
Sequence = TTAGGTGTCGGTTTCGGTTAGTGCTAG; value = 8.61 z-score
Sequence = TTAGGTTTCGGTGCCGGTTAGTGCTAG; value = 9.49 z-score
Sequence = GACTGTTTCCTTTCCCTGACGTGCTAG; value = 1.44 z-score

Sample 3 — technique: RNA Bind-n-Seq; form: RNA; medium: in vitro; concentration: 365 nM; baseline: no-protein control; reading: higher = stronger binding; measurement: RBNS enrichment (R)
Target: RNA binding protein fox-1 homolog 2, RRM domain, GST-SBP tag (RBFOX2, Homo sapiens, UniProt O43251-10, residues 100-194)
Setting: natural RNA segment, single round, ends assumed
All sequences stand within: GGGAGUUCUACAGUCCGACGAUC … UGGAAUUCUCGGGUGCCAA
Construct (chain): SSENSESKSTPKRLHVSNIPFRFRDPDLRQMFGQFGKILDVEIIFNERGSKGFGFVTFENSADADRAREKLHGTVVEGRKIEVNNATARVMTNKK
Sequence = AAUAGCCUUCAUACUGUGGAUUUUUCCUCCUACUAACUAAUAUGUGGGAAAUUAAGAUUACAGAUGCUUUGGGCCCCCUCAAACAGUACAUUGCUACAGUUCACUGUAGC; value = 0.28
Sequence = AUGUUGUGACAAUAUCUAUGGCCACUGUUAGCCCAUUAUGUUCAUUCCAAUUAGAAGAAAUGUGAAUACUAUAUUACGUGUUUUGAGUGACGAGUUUGGGAAAAUAAAAA; value = 0.304
Sequence = CCAUGUGUAACAGAGCUUAGACAUCCAAAACUAAUCAAUGCUGAGGUGGCUAAAUACCUAGCCUUUUACAUGUAAACCUGUCUGCAAAAUUAGCUUUUUUAAAAAAAAAA; value = 0.559
Sequence = AUUUCUGCUUUGUCUAUAAGAAGUGGUCAAGUCCAACUCUGUGACAACUCUUAACUUGCCUCCCUGUUAAUAAGUCUUUGAUUCUGAAGUGAACGUUAGCUUUUCUCAAA; value = 0.569
Sequence = AGAUUUCUCCUCUCCAUGAAGCUGGCACUGCCUCCACCUCCUUCCCUUUCUCCUGUGGACUAGCCUGGAAAGGAGGCGCUUCUAGGCCACCUGGCACAGUUUUCUCUGAA; value = 0.346
Sequence = CUUCCUUAUACCCAAACGCUGGUCGGUGGAAAUAGAAAGUCACCCCUCCCCCAUCGCCUCUUUCUCAUCCCUGAUUAACAGUGAAGUUUGAGUCUUGUCGUGAGUCCUAC; value = 0.347
Sequence = UGUGAGCUCAGAAUUACUUUAAAAGGAGGUAACAGCCAGCCAUUACACCUAAAUUUAAUUUAUUUUAUUAAAAUAACAUAAUUGAGGGACCAUCAGAUAACUGUAUUUUG; value = 0.677
Sequence = CUGCUUCACCCUCACCACCACCACUUCCAAGGAUCAAAGCUGUCUACAGCUCCAUCAAAACCUUUCAUUCACUGCCAAUGAGGAGCACUUUCUUUCUGUAGCAUAGCUUC; value = 0.657
Sequence = CCUACUCUGGCAUAAUUCAAGUGUCUUCUUGCCUUGGGGAUCCUUAGUGGCAUCAAAUGGCAACAUGGAAUAUUGUCCUCCAUGCCCCUCCAGAAGGACCUAGGAGAGUA; value = 0.389
Sequence = UCUCUUACAAAUCUGUGCAUCAGGAAAAUAUGCAUACUUUCAAAUAGAACAGAGGUAUUUGCAACCUGAAAAACCACUUUUAAUAAGAGCUGUAUGAUAAAUUGUUGAAA; value = 2.46
Sequence = UUGAAGUAGACUGGAUAAGGGCCAGUAGCGACUUGCGACUAGACUUUAAACUUUGCUCUUUCAGGUGGAGGCUUCGUUUCUGGGAUCCCACUGCACCGCCAUUUCUUCCC; value = 0.277
Sequence = CUCUGUACACAUUUUUAAACCUGGCAAAAGAUGAAGAGAAUAUUGUAAAUAUAAAAGUUUAACUGUUGUUGUGUUGUCUCCUGUCGUGUUAGAAGGUAGGUGGAGGGUGG; value = 0.94

Sample 4 — technique: RNA Bind-n-Seq; form: RNA; medium: in vitro; concentration: not given; baseline: input RNA pool; reading: higher = stronger binding; measurement: bound/input enrichment
Target: RING finger protein unkempt homolog, zinc fingers 1-6, GST-SBP tag (UNK, Homo sapiens, UniProt Q9C0B0, residues 30-357)
Setting: RNA with constant flanks, human-mouse chimeric sites, ends assumed
All sequences stand within: GGGAGUUCUACAGUCCGACGAUC … CAACAGAGGAUUGAGCAUCA
Target sequence (chain): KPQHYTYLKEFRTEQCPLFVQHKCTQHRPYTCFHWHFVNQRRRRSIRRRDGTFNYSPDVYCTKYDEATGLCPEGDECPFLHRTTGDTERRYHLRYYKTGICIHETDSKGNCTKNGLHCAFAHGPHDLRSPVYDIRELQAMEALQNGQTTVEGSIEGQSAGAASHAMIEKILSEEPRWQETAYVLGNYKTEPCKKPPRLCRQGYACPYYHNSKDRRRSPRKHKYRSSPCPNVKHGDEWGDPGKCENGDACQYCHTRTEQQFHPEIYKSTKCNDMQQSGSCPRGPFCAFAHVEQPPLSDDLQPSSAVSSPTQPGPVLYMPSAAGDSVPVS
Sequence = UGACAAGGGCACUGCAGGGCCAUGCCUUUCCUUGACAUACAGAAAAAGCUGGGCAUCAACAUAGAUCGGCACUUUAUGUUCCUAAGCGCAGAACAGCCCUAUAAGAACGCCGCUCGGUGC; value = 0.0878 ratio
Sequence = GUUGCCAGCUUCCGGUUCCGUUGGGCUCGGUUCUCUCAGUGCUACGUUGUCUCUACGCUCUCAAUCCGCCAUCCAACAAACAUGGAUCAGGUAAUGCAGUUUGUGGAGCCCAGCCGGCAG; value = 0.128 ratio
Sequence = UGACAAGGGCACUGCAGAGCCAUGCCUUUCCUUGACAUACAGAAAAAGCUGGGCAUCAGCCUGGACCGGCACUUUAUGUUCCUAAGCGCAGAACAGCCCUACAAGAUCGCCGCUCGGUGC; value = 0.0854 ratio
Sequence = AAAGAACCUCUCUCUGAUGAAGAUGAGGAAGACAAUGAUGAUGUUGAACCCAUUUCUGAAUUUAGAUUUGUGCCCAGUGAUAAAUCAGCAUUGGAGGCGAUGUUCACAGCAAUGUGUGAG; value = 1.28 ratio
Sequence = CUCAUGGCUGCAGAAACAGGAAGUGGCAAAACUGGUGCAUUUAGUAUUCCCGUUAUCCAGAUAGUGUAUGAAACUCUGAAAGACCAACAGGAAGGAAAGAAAGGGAAAACAACAAUUAAA; value = 1.07 ratio
Sequence = GGAAGUACAAUGAUGGAAAUAGAUGGCGACAAAGGCAAGCAGGGCGGGCCCACCUACUACAUAGACACCAAUGCCCUGCGUGUUCCGAGGGAGAACAUGGAGGCCAUCUCACCACUCAAG; value = 0.19 ratio
Sequence = GCUGAAAAUGAAGAAGAGGCAGCUGAUGUCUGGUACAACCUGGGGCAUGUAGCUGUGGGAAUCGGAGAUACAAACUUGGCCCACCAAUGCUUCAGGCUGGCUCUGGUCCACAACAACCAC; value = 0.142 ratio
Sequence = UUACCCGAGAACGAGGAUGAGCUGGAGAGCACCAACAGGCGCUACACCAAGAGGGACUGCAGCACUUUCCUCAGAACUAGUGAGACGGGCAUCGUGGAUCAGGUUAUGGUCACUCUCAAC; value = 0.109 ratio
Sequence = UGUAGUUUCUUGAUUUAUCAUUUUUCUCUUUUCUUUCUUUCCUUUAGGAAAAGCCUAAAGAUUAGGUUGUAAGAAAAACAGAAGCCAUGUUUCGAAGGAAGACCUGUAUUACAGGUAGUC; value = 0.187 ratio
Sequence = UCAGAAGCUGUGCUGGGUCACUUUUCAUAUCCAGAUCCUUCACAGUGGACAGAUGAAGAACUGGGAAUCCCUCCUGAUGAUGAAGACUGACACUGUAAACUCUCUGGACGAGUAGGAGCA; value = 0.411 ratio
Sequence = AAAGAGAAACUAAAGCAACUAAUAGAGGAAGAGGAUUGCAAAGAGAAUUUCAUAGAGAAACUAGGAUUUAUUAGCAAACAUGAGUUAUAUUCCAGAGCGUCUCAGAAAACCCCAGCCAAC; value = 6.83 ratio
